Experimental data from different studies.
A part holds a random share of what one study measured. Several values in a cell are separate wells, animals, samples, runs or records.
Chain of UniProt P48730 (whole entry, looked up): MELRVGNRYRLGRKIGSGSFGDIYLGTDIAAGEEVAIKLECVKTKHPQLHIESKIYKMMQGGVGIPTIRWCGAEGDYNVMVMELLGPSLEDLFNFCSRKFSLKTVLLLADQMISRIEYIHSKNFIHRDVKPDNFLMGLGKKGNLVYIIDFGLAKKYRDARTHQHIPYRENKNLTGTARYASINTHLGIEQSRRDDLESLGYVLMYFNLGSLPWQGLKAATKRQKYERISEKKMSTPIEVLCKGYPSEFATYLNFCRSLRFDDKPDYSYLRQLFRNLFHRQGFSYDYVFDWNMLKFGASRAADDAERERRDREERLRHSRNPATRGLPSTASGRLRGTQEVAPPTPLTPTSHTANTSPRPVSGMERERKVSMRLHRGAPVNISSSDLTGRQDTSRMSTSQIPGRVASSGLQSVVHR
Chain of UniProt Q32MK0 (whole entry, looked up): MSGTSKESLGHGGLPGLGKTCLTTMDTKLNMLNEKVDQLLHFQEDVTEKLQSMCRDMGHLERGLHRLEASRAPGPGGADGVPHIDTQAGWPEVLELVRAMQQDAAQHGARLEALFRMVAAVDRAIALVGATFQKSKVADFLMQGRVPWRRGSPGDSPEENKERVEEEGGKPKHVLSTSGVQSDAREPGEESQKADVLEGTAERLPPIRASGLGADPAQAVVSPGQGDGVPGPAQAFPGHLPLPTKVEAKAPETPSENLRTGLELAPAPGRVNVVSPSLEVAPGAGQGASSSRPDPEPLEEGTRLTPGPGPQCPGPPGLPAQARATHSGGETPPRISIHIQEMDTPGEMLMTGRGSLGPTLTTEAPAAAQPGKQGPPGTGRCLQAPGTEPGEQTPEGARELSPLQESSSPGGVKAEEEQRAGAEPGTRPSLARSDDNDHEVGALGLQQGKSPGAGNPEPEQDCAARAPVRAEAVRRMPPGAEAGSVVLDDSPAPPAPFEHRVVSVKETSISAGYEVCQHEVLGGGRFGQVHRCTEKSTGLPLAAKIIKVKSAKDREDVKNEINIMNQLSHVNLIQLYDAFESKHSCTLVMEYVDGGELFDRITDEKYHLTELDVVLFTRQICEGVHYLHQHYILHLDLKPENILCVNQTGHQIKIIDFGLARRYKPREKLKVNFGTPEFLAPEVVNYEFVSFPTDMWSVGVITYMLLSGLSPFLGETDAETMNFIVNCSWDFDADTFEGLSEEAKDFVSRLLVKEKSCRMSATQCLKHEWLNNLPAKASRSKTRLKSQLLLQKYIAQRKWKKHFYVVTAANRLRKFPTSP
Chain of UniProt P10721 (whole entry, unmodified, looked up): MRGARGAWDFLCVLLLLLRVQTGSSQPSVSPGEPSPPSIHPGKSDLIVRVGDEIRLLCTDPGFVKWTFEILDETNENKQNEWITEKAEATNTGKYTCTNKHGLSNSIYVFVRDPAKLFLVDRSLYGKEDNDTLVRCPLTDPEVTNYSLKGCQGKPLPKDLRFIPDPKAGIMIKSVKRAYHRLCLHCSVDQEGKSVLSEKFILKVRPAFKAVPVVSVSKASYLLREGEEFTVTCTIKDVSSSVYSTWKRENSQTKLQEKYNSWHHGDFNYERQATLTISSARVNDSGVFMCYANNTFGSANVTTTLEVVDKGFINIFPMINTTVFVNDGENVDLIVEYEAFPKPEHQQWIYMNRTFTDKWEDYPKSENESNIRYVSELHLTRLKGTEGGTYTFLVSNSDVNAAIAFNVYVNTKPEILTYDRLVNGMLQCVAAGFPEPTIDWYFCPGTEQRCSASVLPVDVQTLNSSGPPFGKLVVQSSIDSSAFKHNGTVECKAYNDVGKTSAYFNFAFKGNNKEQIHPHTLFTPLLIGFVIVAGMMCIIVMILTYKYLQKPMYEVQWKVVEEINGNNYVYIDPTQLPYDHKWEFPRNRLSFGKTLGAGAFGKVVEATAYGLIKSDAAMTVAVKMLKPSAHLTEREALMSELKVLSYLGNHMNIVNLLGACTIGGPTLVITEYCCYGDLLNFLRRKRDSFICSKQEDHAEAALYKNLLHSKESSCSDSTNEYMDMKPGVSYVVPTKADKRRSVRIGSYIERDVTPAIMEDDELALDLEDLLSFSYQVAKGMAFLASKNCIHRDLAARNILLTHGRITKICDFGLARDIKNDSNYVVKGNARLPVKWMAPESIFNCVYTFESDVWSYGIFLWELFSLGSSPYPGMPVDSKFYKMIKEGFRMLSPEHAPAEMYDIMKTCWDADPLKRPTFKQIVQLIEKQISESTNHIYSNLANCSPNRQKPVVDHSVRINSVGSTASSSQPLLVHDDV

Study 1
Host: human
Matrix: microsomes or S9
Concentration: 2 µM
Time: 0.5 h
The remaining compound of `COc1ccc(-n2nc([S+](C)[O-])c(-n3ccnc3)c2-c2ccc(Cl)c(Cl)c2)cc1` (stereo not shown) is reported as 28.5%.
With `CC(C)C(NCc1cc(=O)n(C)c(=O)n1C)c1ccc(C2CCCCC2)cc1` (stereo not shown) the remaining compound was 0.333%.
For `CCOc1cc(=O)n2c(c1C(=O)NCCc1ccc(OC)c(OC)c1)CCCC2`, the remaining compound was 94%.
For `CC(C)(NC(=O)C1CCC(NC(=O)C2CCCC2)CC1)c1noc(C(N)=O)n1` (stereo not shown), the remaining compound was 74.5%.
For `Cc1ccc(F)c(N2CCC(NS(=O)(=O)c3cnc4c(c3)c(C)nn4C)CC2)c1`, the remaining compound was 1.86%.
With `CCn1c(=O)n(CC)c2cc(NC(=O)CCN3Cc4ccccc4C3=O)ccc21` the remaining compound was 58.1%.
`CCOC(=O)c1c(-c2ccccc2)n(C#Cc2ccccc2F)c2ccccc12` has a remaining compound of 12.9%.
`Cc1cc(=O)c(C(=O)Nc2nc3ccccc3nc2N2CCCC2)nn1-c1ccc(Cl)cc1` gave a remaining compound of 88.1%.
`CC(C)(C)c1cc(NC(=O)Cn2nnn(-c3ccccc3)c2=O)on1` has a remaining compound of 71.9%.
With `COc1cc(OC)c2c(=O)cc(-c3ccccc3)oc2c1` the remaining compound was 16%.
`O=C(Nc1ccc2nncn2c1)c1cc(Cl)c2c(c1)OCO2` gave a remaining compound of 80.9%.
For `COCCCNC(=O)c1nc(CC(=O)Nc2ccc3cc[nH]c3c2)no1`, the remaining compound was 77.5%.
The remaining compound of `COC(=O)c1ccc2c(=O)n(-c3ccccc3)c(N(Cc3ccco3)C3CCCC3)nc2c1` is reported as 22.6%.
`Cc1cc(C(=O)NC2CCCc3c2[nH]c2ccccc32)c2c(C)noc2n1` (stereo not shown) has a remaining compound of 77.7%.
For `CCOc1cccc2c(C)nc(Nc3nc(=O)c4c([nH]3)CCCC4)nc12`, the remaining compound was 14.5%.
For `Cc1cc(C)n(NC(=O)c2nn(C)cc2Br)c(=O)c1`, the remaining compound was 33%.

Study 2
SMILES: CN(C)S(=O)(=O)c1ccc2c(c1)/C(=C/c1cc3c([nH]1)CCCC3)C(=O)N2
Effect on: enzyme activity
Mode: inhibitor
Concentration: 0.5 µM
Relative to: control
It gave 99.4% for remaining activity (MAP3K20 (Homo sapiens, UniProt Q9NYL2)).
It gave 101% for remaining activity (SGK2 (Homo sapiens, UniProt Q9HBY8)).
TEC (Homo sapiens, UniProt P42680) — remaining activity: 116%.
For EPHA6 (Homo sapiens, UniProt Q9UF33): remaining activity read 61.9%.
For CSNK1D (Homo sapiens, UniProt P48730): remaining activity read 99.7%.
The remaining activity was 65.4% (CAMKK1 (Homo sapiens, UniProt Q8N5S9)).
The remaining activity was 112% (PRKCQ (Homo sapiens, UniProt Q04759)).
The remaining activity was 98.9% (PRKCZ (Homo sapiens, UniProt Q05513)).
The remaining activity was 63.8% (SRPK1 (Homo sapiens, UniProt Q96SB4)).
CAMK1 (Homo sapiens, UniProt Q14012) — remaining activity: 107%.
For Cyclin-dependent kinase 2, with cyclin E (CDK2, Homo sapiens, UniProt P24941): remaining activity read 85.5%.
CSNK1E (Homo sapiens, UniProt P49674) — remaining activity: 104%.

Study 3
Structure (SMILES): C[C@H](c1cccc(C#N)c1)n1cc(Cl)cc(C(N)=O)c1=N
Effect on: cell-free assay
Technique: competition with immobilised ligand
Concentration: 1 µM
For Non-receptor tyrosine-protein kinase TYK2, JH1 (TYK2, Homo sapiens, UniProt P29597): remaining binding read 100%.
For EGFR (Homo sapiens, UniProt P00533, L861Q): remaining binding read 100%.
For MAP3K2 (Homo sapiens, UniProt Q9Y2U5): remaining binding read 100%.
EPHA8 (Homo sapiens, UniProt P29322) — remaining binding: 95%.
It gave 91% for remaining binding (Ribosomal protein S6 kinase alpha-6, N-terminal kinase domain (RPS6KA6, Homo sapiens, UniProt Q9UK32)).
The remaining binding was 67% (TAOK3 (Homo sapiens, UniProt Q9H2K8)).
For Tyrosine-protein kinase ABL1, non-phosphorylated (ABL1, Homo sapiens, UniProt P00519, T315I): remaining binding read 92%.
The remaining binding was 94% (MYLK3 (Homo sapiens, UniProt Q32MK0)).
For PTK6 (Homo sapiens, UniProt Q13882): remaining binding read 95%.
The remaining binding was 78% (CDK7 (Homo sapiens, UniProt P50613)).
AKT3 (Homo sapiens, UniProt Q9Y243) — remaining binding: 100%.
For Ribosomal protein S6 kinase alpha-3, N-terminal kinase domain (RPS6KA3, Homo sapiens, UniProt P51812): remaining binding read 95%.
MAP3K9 (Homo sapiens, UniProt P80192) — remaining binding: 95%.
The remaining binding was 100% (DDR2 (Homo sapiens, UniProt Q16832)).
It gave 96% for remaining binding (KIT (Homo sapiens, UniProt P10721, V559D/V654A)).
The remaining binding was 100% (CHEK2 (Homo sapiens, UniProt O96017)).

Study 4
Target: DNA polymerase theta, ATPase domain (POLQ, Homo sapiens, UniProt O75417)
Chain of UniProt O75417 (whole entry, unmodified, looked up): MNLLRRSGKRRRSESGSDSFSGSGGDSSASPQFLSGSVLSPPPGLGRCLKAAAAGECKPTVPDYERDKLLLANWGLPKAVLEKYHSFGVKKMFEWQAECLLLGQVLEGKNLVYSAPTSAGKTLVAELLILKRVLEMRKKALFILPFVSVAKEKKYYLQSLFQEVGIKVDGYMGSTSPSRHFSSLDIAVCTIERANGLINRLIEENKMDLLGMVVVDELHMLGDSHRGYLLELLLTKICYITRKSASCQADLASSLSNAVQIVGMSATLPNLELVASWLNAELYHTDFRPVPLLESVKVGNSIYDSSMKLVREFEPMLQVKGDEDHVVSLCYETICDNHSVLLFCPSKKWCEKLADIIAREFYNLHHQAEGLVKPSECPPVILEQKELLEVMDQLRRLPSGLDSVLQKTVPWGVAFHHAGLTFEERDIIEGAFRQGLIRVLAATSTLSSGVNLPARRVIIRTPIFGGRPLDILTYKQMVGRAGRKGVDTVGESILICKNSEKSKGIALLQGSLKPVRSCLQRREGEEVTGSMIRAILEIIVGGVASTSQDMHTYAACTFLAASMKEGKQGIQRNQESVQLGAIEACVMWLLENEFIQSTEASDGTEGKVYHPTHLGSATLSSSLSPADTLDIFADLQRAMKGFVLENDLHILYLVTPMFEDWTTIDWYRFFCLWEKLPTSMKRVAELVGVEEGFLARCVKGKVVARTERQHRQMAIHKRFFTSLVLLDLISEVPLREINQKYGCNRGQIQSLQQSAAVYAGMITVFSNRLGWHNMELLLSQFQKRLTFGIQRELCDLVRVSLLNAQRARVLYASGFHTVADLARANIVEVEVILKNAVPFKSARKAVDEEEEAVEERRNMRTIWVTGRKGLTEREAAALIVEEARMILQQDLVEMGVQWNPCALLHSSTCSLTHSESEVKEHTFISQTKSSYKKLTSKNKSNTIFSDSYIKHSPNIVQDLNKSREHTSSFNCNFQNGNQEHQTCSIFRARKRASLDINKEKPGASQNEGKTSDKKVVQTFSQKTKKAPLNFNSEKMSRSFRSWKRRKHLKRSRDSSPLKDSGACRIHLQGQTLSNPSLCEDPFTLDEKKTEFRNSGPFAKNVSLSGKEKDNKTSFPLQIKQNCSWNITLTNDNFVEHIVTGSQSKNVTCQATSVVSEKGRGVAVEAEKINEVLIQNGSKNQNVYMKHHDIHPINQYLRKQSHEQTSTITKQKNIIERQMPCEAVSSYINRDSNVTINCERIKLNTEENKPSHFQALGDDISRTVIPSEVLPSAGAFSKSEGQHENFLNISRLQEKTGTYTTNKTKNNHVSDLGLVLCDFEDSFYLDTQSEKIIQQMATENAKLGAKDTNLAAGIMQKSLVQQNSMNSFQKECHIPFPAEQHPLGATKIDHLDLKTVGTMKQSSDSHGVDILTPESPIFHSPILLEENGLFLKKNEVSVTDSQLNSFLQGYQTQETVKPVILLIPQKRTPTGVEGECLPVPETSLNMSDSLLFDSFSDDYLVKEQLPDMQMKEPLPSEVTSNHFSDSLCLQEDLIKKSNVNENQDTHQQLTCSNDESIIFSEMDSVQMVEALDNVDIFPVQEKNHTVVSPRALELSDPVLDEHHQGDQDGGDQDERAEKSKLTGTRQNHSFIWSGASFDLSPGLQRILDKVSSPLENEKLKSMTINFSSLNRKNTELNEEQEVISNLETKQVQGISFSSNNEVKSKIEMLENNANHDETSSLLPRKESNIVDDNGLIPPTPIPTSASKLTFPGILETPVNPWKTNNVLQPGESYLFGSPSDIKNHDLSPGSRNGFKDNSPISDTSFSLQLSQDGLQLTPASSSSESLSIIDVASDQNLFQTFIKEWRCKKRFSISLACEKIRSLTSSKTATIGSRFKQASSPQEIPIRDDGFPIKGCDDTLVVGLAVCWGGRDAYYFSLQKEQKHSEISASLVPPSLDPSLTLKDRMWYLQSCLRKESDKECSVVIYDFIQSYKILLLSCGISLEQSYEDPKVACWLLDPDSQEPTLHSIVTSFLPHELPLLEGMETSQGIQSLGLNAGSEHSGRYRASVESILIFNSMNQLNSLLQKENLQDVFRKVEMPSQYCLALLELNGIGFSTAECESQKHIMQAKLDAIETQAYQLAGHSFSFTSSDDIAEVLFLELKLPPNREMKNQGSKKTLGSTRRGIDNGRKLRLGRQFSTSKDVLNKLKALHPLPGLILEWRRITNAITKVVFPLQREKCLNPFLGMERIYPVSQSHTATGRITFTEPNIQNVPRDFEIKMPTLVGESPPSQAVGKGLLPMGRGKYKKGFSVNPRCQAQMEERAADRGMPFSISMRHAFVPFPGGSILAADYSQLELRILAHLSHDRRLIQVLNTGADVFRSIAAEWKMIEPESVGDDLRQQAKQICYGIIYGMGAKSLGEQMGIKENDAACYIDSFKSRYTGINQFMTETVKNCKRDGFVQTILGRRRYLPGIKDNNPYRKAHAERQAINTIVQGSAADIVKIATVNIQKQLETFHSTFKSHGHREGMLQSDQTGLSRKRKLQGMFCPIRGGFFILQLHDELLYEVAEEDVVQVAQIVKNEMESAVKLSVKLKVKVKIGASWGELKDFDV
Effect on: enzyme activity
Mode: inhibitor
Concentration: 77 µM
Relative to: untreated
`Cc1n[nH]c(=O)[nH]c1=O` gave a remaining activity of 99.5%.
`COc1ccc(CCN(C)CCCC(C#N)(c2cc(OC)c(OC)c(OC)c2)C(C)C)cc1OC` (stereo not shown) has a remaining activity of 103%.
`N=C(N)c1ccc(N=NNc2ccc(C(=N)N)cc2)cc1` has a remaining activity of 102%.
With `O=C(O)c1cccnc1` the remaining activity was 99.9% and 97.9%.
For `CC(=O)C(C)=O`, the remaining activity was 99.8%.
The remaining activity of `CCCCCCCCOc1ccccc1C(=O)Nc1ccc(C(=O)OCC[N+](C)(CC)CC)cc1` is reported as 98.8%.
For `COc1ccc(Cl)cc1NC(=O)Nc1cc(C)nc2ccccc12`, the remaining activity was 119%.
For `COC(=O)[C@]12CCC(C)(C)C[C@H]1[C@H]1C(=O)C=C3[C@@]4(C)C=C(C#N)C(=O)C(C)(C)[C@@H]4CC[C@@]3(C)[C@]1(C)CC2`, the remaining activity was 56.7%.
With `CC(=O)Nc1cccc(-n2c(=O)n(C3CC3)c(=O)c3c(Nc4ccc(I)cc4F)n(C)c(=O)c(C)c32)c1` the remaining activity was 99.3%.
The remaining activity of `C[C@H](Nc1ncnc2nc[nH]c12)c1cc2cccc(Cl)c2c(=O)n1-c1ccccc1` is reported as 110%.
The remaining activity of `CCN1CCN(Cc2ccc(Nc3ncc(F)c(-c4cc(F)c5nc(C)n(C(C)C)c5c4)n3)nc2)CC1` is reported as 96.3%.
With `C[C@@H]1C(=O)O[C@H]2[C@H](O)[C@@]34[C@H]5C[C@@H](C(C)(C)C)[C@]36[C@@H](OC(=O)[C@@H]6O)O[C@@]4(C(=O)O5)[C@@]12O` the remaining activity was 86.9%.
The remaining activity of `CC(=O)NS(=O)(=O)c1ccc(N)cc1` is reported as 100%.
The remaining activity of `CCOC(=O)n1ccn(C)c1=S` is reported as 91% and 90.9%.

A few entries again (study 2):
CAMK1 (Homo sapiens, UniProt Q14012) — remaining activity: 107%.
The remaining activity was 112% (PRKCQ (Homo sapiens, UniProt Q04759)).
The remaining activity was 65.4% (CAMKK1 (Homo sapiens, UniProt Q8N5S9)).
The remaining activity was 98.9% (PRKCZ (Homo sapiens, UniProt Q05513)).
The remaining activity was 63.8% (SRPK1 (Homo sapiens, UniProt Q96SB4)).
It gave 99.4% for remaining activity (MAP3K20 (Homo sapiens, UniProt Q9NYL2)).
CSNK1E (Homo sapiens, UniProt P49674) — remaining activity: 104%.
